Assay results pooled from the literature.
Compare with care: the assays were run in different laboratories. ± marks the error that the study gave.
Mapk14: Mapk14, pT180, pY182 (Rattus norvegicus, UniProt P70618)
FGFR3 isoform IIIc: FGFR3 isoform IIIc (unknown, UniProt Q61851)
B1: TIMP3 24-144 (Homo sapiens, UniProt P35625); sequence looked up; chain CTCSPSHPQDAFCNSDIVIRAKVVGKKLVKEGPFGTLVYTIKQMKMYRGFTKMPHVQYIHTEASESLCGLKLEVNKYQYLLTGRVYDGKMYTGLCNFVERWDQLTLSQRKGLNYRYHLGCN
B2: GRK1 1-535 (Bos taurus, UniProt P28327); chain MDFGSLETVVANSAFIAARGSFDASSGPASRDRKYLARLKLPPLSKCEALRESLDLGFEGMCLEQPIGKRLFQQFLRTHEQHGPALQLWKDIEDYDTADDALRPQKAQALRAAYLEPQAQLFCSFLDAETVARARAGAGDGLFQPLLRAVLAHLGQAPFQEFLDSLYFLRFLQWKWLEAQPMGEDWFLDFRVLGRGGFGEVFACQMKATGKLYACKKLNKKRLKKRKGYQGAMVEKKILAKVHSRFIVSLAYAFETKTDLCLVMTIMNGGDIRYHIYNVDEDNPGFQEPRAIFYTAQIVSGLEHLHQRNIIYRDLKPENVLLDDDGNVRISDLGLAVELKAGQTKTKGYAGTPGFMAPELLLGEEYDFSVDYFALGVTLYEMIAARGPFRARGEKVENKELKQRVLEQAVTYPDKFSPASKDFCEALLQKDPEKRLGFRDGSCDGLRTHPLFRDISWRQLEAGMLTPPFVPDSRTVYAKNIQDVGAFSTVKGVAFEKADTEFFQEFASGTCPIPWQEEMIETGVFGDLNVWRPDG
B3: GCN4/KAR3/VIK1 353-729/341-647 C391L/C469A/C517A/C566V/C655V/E382C/C377V/C436A/C536A/C596A/C640A/K372C (Saccharomyces cerevisiae); M4M 10-Å cross-link; chain 1 SVKELEDKVEELLSKNYHLENEVARLKKLVKDTELGMKELNEILIKEETVRRTLHNELQCLRGNIRVYLRIRPALKNLENSDTSLINVNEFDDNSGVQSMEVTKIQNTAQVHEFKFDKIFDQQDTNVDVFKEVGQLVQSSLDGYNVAIFAYGQTGSGKTFTMLNPGDGIIPSTISHIFNWINKLKTKGWDYKVNAEFIEIYNENIVDLLRSDNNNKEDTSIGLKHEIRHDQETKTTTITNVTSVKLESEEMVEIILKKANKLRSTASTASNEHSSRSHSIFIIHLSGSNAKTGAHSYGTLNLVDLAGSERINVSQVVGDRLRETQNINKSLSVLGDVIHALGQPDSTKRHIPFRNSKLTYLLQYSLTGDSKTLMFVNISPSSSHINETLNSLRFASKVNSTRLVSRK; chain 2 SVKELEDKVEELLSKNYHLENEVARLKKLVSKQEKFYNDTYNTVEKELLRSRRLENSIIEQCGTMRVYAYVMEQNLPENLLFDYENGVITQGLSEHVYKFNRVIPHLKVSEDKFFTQEYSVYHDMALNQKKNFNLISLSTTPHGSLRESLIKFLAEKDTIYQKQYVITLQFVFLSDDEFSQDMLLDYSHNDKDSIKLKFEKHSISLDSKLVIIENGLEDLPLNFSADEHPNLPHSGMGIIKVQFFPRDSKSDGNNDPVPVDFYFIELNNLKSIEQFDKSIFKKESAETPIALVLKKLISDTKSFFLLNLNDSKNVNKLLTISEEVQTQLAKRKKKLT
B4: UGT1A9 (Homo sapiens, UniProt O60656); chain GKLLVVPMDGSHWFTMRSVVEKLILRGHEVVVVMPEVSWQLGRSLNCTVKTYSTSYTLEDLDREFKAFAHAQWKAQVRSIYSLLMGSYNDIFDLFFSNCRSLFKDKKLVEYLKESSFDAVFLDPFDNCGLIVAKYFSLPSVVFARGILCHYLEEGAQCPAPLSYVPRILLGFSDAMTFKERVRNHIMHLEEHLLCHRFFKNALEIASEILQTPVTEYDLYSHTSIWLLRTDFVLDYPKPVMPNMIFIGGINCHQGKPLPMEFEAYINASGEHGIVVFSLGSMVSEIPEKKAMAIADALGKIPQTVLWRYTGTRPSNLANNTILVKWLPQNDLLGHPMTRAFITHAGSHGVYESICNGVPMVMMPLFGDQMDNAKRMETKGAGVTLNVLEMTSEDLENALKAVINDKSYKENIMRLSSLHKDRPVEPLDLAVFWVEFVMRHKGAPHLRPAAHDLTWYQYHSLDVIGFLLAVVLTVAFITFKCCAYGYRKCLGKKGRVKKAHKSKTH
B5: FGF6 (Homo sapiens, UniProt P10767); chain SPAGTRANNTLLDSRGWGTLLSRSRAGLAGEIAGVNWESGYLVGIKRQRRLYCNVGIGFHLQVLPDGRISGTHEENPYSLLEISTVERGVVSLFGVRSALFVAMNSKGRLYATPSFQEECKFRETLLPNNYNAYESDLYQGTYIALSKYGRVKRGSKVSPIMTVTHFLPRI

Substance	target or system	assay	system	conditions	scale	quantity	value
SUMO1 fragment D85C (Arabidopsis thaliana)	SAE2/SAE1a (Arabidopsis thaliana)	SUMO conjugation		42 °C	baseline: native AtSUMO1, higher = faster conjugation	SUMO conjugation rate	24%
B1 (TIMP3 24-144)	ADAMTS4 213-685 (Homo sapiens, UniProt O75173)	inhibitor, steady-state kinetics		1 h, pH 7.5, 37 °C		Ki	0.18 nM
PLIN1 del292-319	Cidec (Mus musculus, UniProt P56198)	FRAP	3T3-L1 preadipocytes		higher = faster exchange	lipid exchange rate	0.16 µm^3 s⁻¹
MENVKKATATTTWAVPTAQ (L3MBTL3 52-70 M65A (Homo sapiens, UniProt Q96JM7-2); sequence looked up)	Rbpj 53-474 (Mus musculus, UniProt P31266)	ITC	peptide	pH 6.5, 25 °C, NaCl 150 mM		ΔH	-12.4 kcal/mol
fabF R127A/K128A (Escherichia coli)	acpP C12-acylated 1-78, C12 acyl on 4'-phosphopantetheine (Escherichia coli, UniProt P0A6A8)	holo-AcpP formation, HPLC		10 µM, together with: malonyl-CoA		condensation rate	1.75 min⁻¹
ADM2 mature (Homo sapiens)	CALCRL/RAMP2 whole, on cells (Homo sapiens)	cAMP, antagonist, CAMYEL BRET	COS-7	100 nM agonist		cAMP decay time constant	2.65 min
Syt1 (Mus musculus, UniProt P46096)	Psen1 (Mus musculus, UniProt P49769)	FLIM FRET	old mouse primary neurons	15 min, together with: KCl 50 mM	baseline: no KCl, higher = more FRET	FRET efficiency change	1.5 fold
CLSTAADMQGVVTDGMASGLDKDYLKPDD (azu residues 50-77)	TP63 DBD 127-323 (Homo sapiens)	atomic force spectroscopy	peptide	pH 7.5, NaCl 150 mM		kon	17000 M⁻¹ s⁻¹
Ac-SQHNRQLLRGALRRWK-NH2 (SFI1 repeat 18, 677-692 (Homo sapiens); N-acetyl; C-terminal amide)	CETN1, phosphothreonine (Homo sapiens, UniProt Q12798)	ITC	peptide			molecule per partner	0.57
YANQLKFRKKKLKFCK (SETD1B D-site peptide (Homo sapiens))	Mapk14	kinase activity, inhibitor, competitive kinase inhibition assay	peptide	together with: ATP 1 mM		IC50	7800 nM
Prkcb (Mus musculus, UniProt P68404)	integrin β3 (Mus musculus, UniProt O54890)	co-IP	mouse aortic SMCs	hyperglycemia	baseline: euglycemic conditions, higher = more association	association increase	4.3 fold
KNG1 two-chain HKa (Homo sapiens)	PLAUR (Homo sapiens, UniProt Q03405)	cell migration, inhibitor, Boyden chamber	DU145	300 nM, 6 h, together with: bFGF	baseline: untreated control, higher = stronger inhibition	inhibition of migration	76%
B2 (GRK1 1-535)	RHO (Bos taurus, UniProt P02699)	transducin activation by Rho*, inhibitor			higher = less activation	decrease in transducin fluorescence	50%
TFPI endogenous, on cells (Homo sapiens, UniProt P10646)	F10 factor Xa	factor Xa inhibition	HUVEC	100 µg/mL total protein, initial, methyl-β-cyclodextrin		free factor Xa	0.09 nM
PAN-A (Methanosarcina mazei, UniProt Q8PY58)	20S proteasome core particle (Methanosarcina mazei, UniProt Q8PTU1)	BODIPY-casein degradation, activator		100 nM CP, together with: ATP	baseline: MmCP alone, higher = more degradation	casein degradation	2.5 fold
FGF8b (Homo sapiens)	FGFR3 isoform IIIc	cell proliferation, MTT	BaF3-FGFR3c	20 nM, 48 h, together with: 2-O desulfated heparin 4.9 µg/mL	baseline: FGF 1 with heparin, higher = more proliferation	cell proliferation	122%
GLP-2 mature, D-Ala4, C-terminal amide	GLP2R (Homo sapiens, UniProt O95838)	cAMP, agonist			baseline: GLP-2, higher = more cAMP	relative cAMP production	101%
CNR1 (Homo sapiens, UniProt P21554)	ITGB1 (Homo sapiens, UniProt P05556)	co-IP	endothelial cells, cell extracts	Ca2+-free, EGTA, together with: anandamide 10 µM	baseline: basal, without anandamide, higher = more CB1R bound	relative binding	0.3 ± 0.21 fold
MYO2 (Saccharomyces cerevisiae, UniProt P19524)	ACT1/TPM1 filaments (Saccharomyces cerevisiae/Gallus gallus)	single-molecule TIRF motility		0.2 nM, pH 7.4, 22 °C, together with: tropomyosin 1 µM	higher = longer runs	run length	0.53 µm
F8 A2 subunit D666S (human)	F8 A1 and A3C1C2 dimer, factor VIIIa S1787D	FXa generation activity loss		1.5 nM, 23 °C	higher = faster decay	decay rate	0.1 min⁻¹
TFPI (Homo sapiens, UniProt P10646-1)	F5 B-domain deleted 811-1490 R709Q/R1545Q (UniProt P12259)	prothrombinase inhibition, inhibitor		together with: UFH 1 u/mL		IC50	14.9 nM
STIM1 (Homo sapiens, UniProt Q13586)	ORAI1 (Homo sapiens, UniProt Q96D31)	I_CRAC block, whole-cell patch clamp	HEK293T	together with: CPA		temperature for half block	36.9 °C
B3	microtubules tubulin polymer	TIRF motility assay		initial		gliding velocity	3.62 µm/min
B4 (UGT1A9)	O=c1cc(-c2cccc(O)c2)oc2cc(O)ccc12	steady-state kinetics		pH 7.4, 37 °C		Vmax/Km	546 µL/min/mg
YAERPSRDHLYLPLEP (NFATC3 D-site peptide (Homo sapiens))	Mapk14	kinase activity, inhibitor, competitive kinase inhibition assay	peptide	together with: ATP 1 mM		IC50	> 100000 nM
H3K4me3 peptide, K4me3	Rag2 (Mus musculus, UniProt P21784)	coupled cleavage of 12-RSS		1 hr, together with: H3K4me3 0.5-4 µM	baseline: no peptide, higher = more hairpin	hairpin yield	> 10 fold
Pfa1 G-patch (Chaetomium thermophilum)	Prp43 C303T/C323V/C441A/C508A/C543S/K170C/E602C (Chaetomium thermophilum, UniProt G0RY84)	RNA unwinding, activator				unwinding rate constant	3.9 min⁻¹
MYBPC3 (Homo sapiens, UniProt Q14896)	ACTC1 F-actin (Oryctolagus cuniculus)	co-sedimentation		apparent		molecule per partner	0.73 ± 0.11 C2 per actin
B5 (FGF6)	FGFR3 isoform IIIc	cell proliferation, MTT	BaF3-FGFR3c	20 nM, 48 h, together with: heparin 4.9 µg/mL	baseline: FGF 1 with heparin, higher = more proliferation	cell proliferation	74%

A few entries again:
Substance	target or system	assay	system	conditions	scale	quantity	value
H3K4me3 peptide, K4me3	Rag2 (Mus musculus, UniProt P21784)	coupled cleavage of 12-RSS		1 hr, together with: H3K4me3 0.5-4 µM	baseline: no peptide, higher = more hairpin	hairpin yield	> 10 fold
Pfa1 G-patch (Chaetomium thermophilum)	Prp43 C303T/C323V/C441A/C508A/C543S/K170C/E602C (Chaetomium thermophilum, UniProt G0RY84)	RNA unwinding, activator				unwinding rate constant	3.9 min⁻¹
MYBPC3 (Homo sapiens, UniProt Q14896)	ACTC1 F-actin (Oryctolagus cuniculus)	co-sedimentation		apparent		molecule per partner	0.73 ± 0.11 C2 per actin
